{"data": "Results gathered from unrelated publications", "note": "Each line is one published result; not all experiments were run side by side. ± marks the error that the study gave."}
{"Compound": "c1cncc([C@@H]2CCCN2)c1", "target": "sigma receptor 2", "assay": "radioligand binding", "setting": "50 µM", "endpoint": "inhibition", "result": "-1.59%"}
{"Compound": "COc1ncccc1-c1cnn2ccc(N3CCN(C(=O)OC(C)C)CC3)nc12", "target": "L-type calcium channel", "assay": "inhibitor", "endpoint": "IC50", "result": "12 µM"}
{"Compound": "Clc1ccc(-c2ccccc2Cl)cc1", "target": "gap junction, rat", "assay": "gap junctional communication, scrape loading dye transfer", "system": "WB-F344 rat liver epithelial", "setting": "1 h", "endpoint": "IC25", "result": "17 µM"}
{"Compound": "CC(C)CC(=O)OC[C@H]1O[C@@](C#N)(c2ccc3c(N)ncnn23)[C@H](O)[C@@H]1O", "target": "NMDA receptor Agonism site (rat)", "setting": "20 µM", "endpoint": "inhibition", "result": "3%"}
{"Compound": "C#Cc1nc(C(=O)N2CCC(NC(=O)c3cnc(-c4ccccc4)s3)(c3nc4ccccc4n3C)CC2)cs1", "target": "STING (mouse)", "assay": "inhibitor, RT-qPCR", "system": "iBMDMs", "setting": "concentration not given, 2 h, added: 500 nM diABZI", "endpoint": "IL6 mRNA level", "result": "inhibited"}
{"Compound": "COc1cc(C(=O)N2CC[C@@H](O)[C@@H](N)C2)cc2nc(-c3cc4ccccc4n3CC3CC3)n(C)c12", "target": "PAD4", "assay": "immunoblot", "system": "human neutrophils", "setting": "10 µM, added: A23187 or Staphylococcus aureus stimulation", "endpoint": "protein citrullination", "result": "inhibited"}
{"Compound": "CO/N=C1\\C[C@]2(C[C@@H]3C[C@@H](C/C=C(\\C)C[C@@H](C)/C=C/C=C4\\CO[C@@H]5[C@H](O)C(C)=C[C@@H](C(=O)O3)[C@]45O)O2)O[C@H](/C(C)=C/C(C)C)[C@H]1C", "target": "human FXR", "system": "HEK293 cells", "endpoint": "IC50", "result": "16.7 ± 7.7 µM"}
{"Compound": "Clc1ccc(-c2ccc(Cl)cc2Cl)cc1", "target": "gap junction, rat", "assay": "gap junctional communication, scrape loading dye transfer", "system": "WB-F344 rat liver epithelial", "setting": "1 h", "endpoint": "IC50", "result": "22 µM"}
{"Compound": "CC(=O)C(c1ccccc1)c1ccccc1", "target": "human FXR", "assay": "reporter gene", "system": "HEK293 FXR-bla cells", "setting": "concentration not given", "endpoint": "activity", "result": "inactive"}
{"Compound": "O=C(Nc1cccnn1)N1CCN([C@@H]2CCOc3cc(C(F)(F)F)ccc32)CC1", "target": "neuronal nicotinic receptor alpha4beta2", "assay": "binding", "setting": "20 µM, alpha-bungarotoxin-insensitive", "endpoint": "inhibition", "result": "8%"}
{"Compound": "CCOP(=O)(OCC)Oc1ccc([N+](=O)[O-])cc1", "target": "carboxylesterase (mouse)", "system": "PON1 knockout mouse, liver", "setting": "dermal, 0.35 mg/kg, 4 h", "endpoint": "inhibition", "result": "4%"}
{"Compound": "O=C1c2ccccc2-[n+]2ccc3c([nH]c4ccccc43)c21", "target": "human TRPM8", "system": "HEK293", "setting": "5 µM, 24 h", "how to read": "baseline: control", "endpoint": "remaining activity", "result": "96.1 ± 3.2%"}
{"Compound": "O=C1c2ccccc2C(=O)C1C(=O)C(c1ccccc1)c1ccccc1", "target": "human FXR", "assay": "reporter gene", "system": "HEK293 FXR-bla cells", "setting": "concentration not given", "endpoint": "activity", "result": "inactive"}
{"Compound": "Oc1cc(Cl)cc(-c2cccc(Cl)c2)c1", "target": "gap junction, rat", "assay": "gap junctional communication, scrape loading dye transfer", "system": "WB-F344 rat liver epithelial", "setting": "1 h", "endpoint": "IC50", "result": "33 µM"}
{"Compound": "COc1cc(OC)c(/C=C2/C(=O)Nc3ccccc32)c(OC)c1", "target": "human TRPM8", "system": "HEK293", "setting": "5 µM, 24 h", "how to read": "baseline: control", "endpoint": "remaining activity", "result": "119 ± 7.75%"}
{"Compound": "Cc1ccccc1OP(=O)(Oc1ccccc1C)Oc1ccccc1C", "target": "carboxylesterase (mouse)", "assay": "inhibitor", "system": "PON1+/+ mice, liver", "setting": "dermal, 10 mg/kg, 24 h", "endpoint": "carboxylesterase inhibition", "result": "inhibited"}
{"Compound": "C[C@H](C(=O)N[C@H]1COc2ccccc2[C@@H]1S(C)(=O)=O)c1ccc(F)cc1", "target": "GABAA chloride channel, rat", "assay": "binding", "setting": "10 µM, Eurofins selectivity panel, added: TBOB", "endpoint": "inhibition", "result": "1%"}
{"Compound": "CCC(=O)OCCc1ccccc1", "target": "Aedes aegypti OR15/Orco", "assay": "agonist, two-electrode voltage clamp", "system": "Xenopus oocytes", "endpoint": "EC50", "result": "20.2 µM"}
{"Compound": "C[C@H](CCCC(C)(C)O)[C@H]1CC[C@H]2[C@@H]3CC=C4C[C@@H](O)CC[C@]4(C)[C@H]3CC[C@]12C", "target": "NMDA receptor (rat)", "assay": "NMDA-evoked peak current, potentiator, whole-cell patch clamp", "system": "cultured hippocampal neurons", "setting": "1 µM, added: NMDA 10 µM", "endpoint": "potentiation", "result": "17.8 ± 4.7%"}
{"Compound": "Clc1ccc(Cl)c(-c2ccccc2Cl)c1", "target": "gap junction, rat", "assay": "gap junctional communication, scrape loading dye transfer", "system": "WB-F344 rat liver epithelial", "setting": "1 h", "endpoint": "IC50", "result": "12 µM"}
{"Compound": "O=[N+]([O-])/C=C/c1ccc2c(c1)OCO2", "target": "human TRPM8", "system": "HEK293", "setting": "5 µM, 24 h", "how to read": "baseline: control", "endpoint": "remaining activity", "result": "97.2 ± 7.21%"}
{"Compound": "CC(C)(C)C(=O)C1C(=O)c2ccccc2C1=O", "target": "human FXR", "assay": "reporter gene", "system": "HEK293 FXR-bla cells", "setting": "concentration not given", "endpoint": "activity", "result": "inactive"}
{"Compound": "Clc1ccccc1-c1ccccc1Cl", "target": "gap junction, rat", "assay": "gap junctional communication, scrape loading dye transfer", "system": "WB-F344 rat liver epithelial", "setting": "1 h", "endpoint": "IC25", "result": "15 µM"}
{"Compound": "CO[C@H]1[C@@H](OC)C[C@H](C)[C@@H](OC)C2=CC(=O)C=C(NC(=O)/C(C)=C/C=C\\[C@H](OC)[C@@H](OC(N)=O)/C(C)=C/[C@@H]1C)C2=O", "target": "human TRPM8", "system": "HEK293", "setting": "5 µM, 24 h", "how to read": "baseline: control", "endpoint": "remaining activity", "result": "120 ± 8.38%"}
{"Compound": "COc1ccc(N2C(=O)N(c3c(C)cccc3Cl)Cc3cnc(Nc4ccc(C5CCN(C)CC5)cc4OC)nc32)nc1", "target": "NDRG1 kinase, human", "assay": "kinase activity", "setting": "0.5 µM", "endpoint": "inhibition", "result": "2.44%"}
{"Compound": "CCC(C)Nc1c([N+](=O)[O-])cc(C(C)(C)C)cc1[N+](=O)[O-] (stereo not drawn)", "target": "anti-cpd monoclonal antibody, mouse", "assay": "indirect competitive ELISA", "setting": "concentration not given", "how to read": "baseline: target IC50 over cpd IC50", "endpoint": "cross-reactivity", "result": "100%"}
{"Compound": "Oc1ccc(-c2ccc(Cl)cc2)c(Cl)c1", "target": "gap junction, rat", "assay": "gap junctional communication, scrape loading dye transfer", "system": "WB-F344 rat liver epithelial", "setting": "1 h", "endpoint": "IC25", "result": "15 µM"}
{"Compound": "COc1cc(Nc2ncc(F)c(Nc3ccc4c(n3)NC(=O)C(C)(C)O4)n2)cc(OC)c1OC", "target": "GABAA receptor agonist site", "assay": "binding", "endpoint": "IC50", "result": "> 10 µM"}
{"Compound": "C[C@]1(CO)Cc2ncn(-c3ccc(C#N)c(Cl)c3)c2C(=O)O1", "target": "aldosterone synthase", "assay": "inhibitor", "system": "human, plasma", "setting": "80 mg, days 14 and 15, European multiple ascending dose", "how to read": "baseline: day 1", "endpoint": "plasma corticosterone", "result": "increased"}
{"Compound": "Oc1ccc(-c2cccc(Cl)c2)cc1Cl", "target": "gap junction, rat", "assay": "gap junctional communication, scrape loading dye transfer", "system": "WB-F344 rat liver epithelial", "setting": "1 h", "endpoint": "IC25", "result": "43 µM"}
{"Compound": "CCCCCCc1ccc(O)cc1", "target": "HBV core protein Cp149 dimer", "assay": "solution NMR", "setting": "4 molar equivalents, pH 7.5, 295 K, average over eight residues", "how to read": "baseline: apo Cp149 dimer", "endpoint": "average chemical shift perturbation", "result": "0.083 ppm"}
{"Compound": "Clc1cccc(-c2cccc(Cl)c2)c1", "target": "gap junction, rat", "assay": "gap junctional communication, scrape loading dye transfer", "system": "WB-F344 rat liver epithelial", "setting": "1 h", "endpoint": "IC50", "result": "27 µM"}
{"Compound": "O=[N+]([O-])c1ccc(Cl)c([N+](=O)[O-])c1", "target": "12 recombinant human hepatic cytosolic GSTs", "assay": "GST enzyme activity, substrate, spectrophotometry", "setting": "1 mM, 6 min, 30 °C, added: GSH 1 mM", "endpoint": "activity class", "result": "active"}
{"note": "Some of these lines once more:"}
{"Compound": "Oc1ccc(-c2ccc(Cl)cc2)c(Cl)c1", "target": "gap junction, rat", "assay": "gap junctional communication, scrape loading dye transfer", "system": "WB-F344 rat liver epithelial", "setting": "1 h", "endpoint": "IC25", "result": "15 µM"}
{"Compound": "COc1cc(Nc2ncc(F)c(Nc3ccc4c(n3)NC(=O)C(C)(C)O4)n2)cc(OC)c1OC", "target": "GABAA receptor agonist site", "assay": "binding", "endpoint": "IC50", "result": "> 10 µM"}
{"Compound": "C[C@]1(CO)Cc2ncn(-c3ccc(C#N)c(Cl)c3)c2C(=O)O1", "target": "aldosterone synthase", "assay": "inhibitor", "system": "human, plasma", "setting": "80 mg, days 14 and 15, European multiple ascending dose", "how to read": "baseline: day 1", "endpoint": "plasma corticosterone", "result": "increased"}
{"Compound": "Oc1ccc(-c2cccc(Cl)c2)cc1Cl", "target": "gap junction, rat", "assay": "gap junctional communication, scrape loading dye transfer", "system": "WB-F344 rat liver epithelial", "setting": "1 h", "endpoint": "IC25", "result": "43 µM"}
